Measured values of several laboratories.
Protocols differ between the studies behind these lines. ± gives the spread as reported.

Cn1ncc(-c2nc(N[C@H]3CC[C@H](N)CC3)ncc2Cl)c1CC1CC1 gave an AUC of 36.1 ng·h/mL (human patients, plasma; oral, 1 mg, day 1).
With O=C(O)CCC(CP(=O)(O)O)C(=O)O (stereo not shown) the measured concentration was 3.85 ± 0.13 µg/mL (rat, plasma; 4 µg/mL, 28 days, -80 °C, long-term stability).
O=C(Nc1ccccc1)C1CCN(C(=O)Oc2cccnc2)CC1 — result for “subjects with Photophobia adverse event”: 0% (adverse event reporting; healthy women; oral, 20 mg, 7 days).
For C[C@]1(CO)Cc2ncn(-c3ccc(C#N)c(Cl)c3)c2C(=O)O1, “subjects with drug-related headache” read 14.3% (human; 20 mg single dose).
CO[C@H]1C[C@@H]2CC[C@@H](C)[C@@](O)(O2)C(=O)C(=O)N2CCCC[C@H]2C(=O)O[C@H]([C@H](C)C[C@@H]2CC[C@@H](OC(=O)NCCOCCOCCOCCOCCOCCOCCOCCOCCC(=O)N3CCc4cc(Cn5nc(-c6ccc7oc(N)nc7c6)c6c(N)ncnc65)ccc4C3)[C@H](OC)C2)C[C@@H](O)[C@H](C)/C=C(\C)[C@@H](O)[C@@H](OC)C(=O)[C@H](C)C[C@H](C)/C=C/C=C/C=C/1C — result for “maximum tolerated dose”: 8 mg (patients with advanced solid tumours; intravenous, once weekly, without dexamethasone prophylaxis).
Under “incidence of any serious TEAE”, N[C@@H]1c2ccccc2OC12CCN(c1cnc3c(N4CCCc5ncccc54)n[nH]c3n1)CC2 is recorded as 36.1% (patients advanced metastatic solid tumours; oral, dose not given, dose escalation total).
Oc1c(Cl)cc2c(c1Cl)Oc1cc(Cl)c(Cl)cc1O2: “dose fraction in milk fat” 54.5% (whole cow milk; 500 nM nominal).
COc1cc2c(Oc3ccc4[nH]c(C)cc4c3F)ccnc2cc1OCC1(N)CC1 has an Epistaxis incidence of 25% (paediatric recurrent refractory sarcoma; 10 mg).
For Clc1ccc(-c2ccccc2)cc1, “blood urea nitrogen” read 15 ± 5 mg/dL (female Sprague-Dawley rats, serum; inhalation, 23 µg/rat, 2 h after exposure).
For O=C(O)CCCOc1ccc(F)cc1-c1cc(-c2ccccc2C(F)(F)F)n(-c2ccccc2)n1, the organ weight was 0.47 ± 0.11 g (female Crl:CD(SD) rats, uterus; intravenous, 25 µg/kg, 1 d).
Under “incidence of urine erythrocyte positive”, C[C@@H](NC(=O)N1C(=O)[C@H](Cc2ccnc(N)c2)[C@H]1C(=O)O)C1CCCCC1 is recorded as 0% (healthy adult Chinese volunteers; continuous intravenous infusion, 2.25 mg/kg/h, 5-day infusion, CTCAE 5.0 grading).
COc1cccc(Oc2ccccc2NC(=O)CNC(=O)c2cccc3ccccc23)c1 has a serum albumin of 3 g/dL (esterase-deficient SCID mice, male; oral, 40 mg/kg/day, 14 days, toxicity study).
With CCc1ccc(CC/C=C/c2ccc3c(c2)C(=O)CC3)cc1 the creatinine was 17.7 µM (Sprague-Dawley rat, male, serum; oral, 450 mg/kg/day, 14 days).

Some of these lines once more:
Under “incidence of urine erythrocyte positive”, C[C@@H](NC(=O)N1C(=O)[C@H](Cc2ccnc(N)c2)[C@H]1C(=O)O)C1CCCCC1 is recorded as 0% (healthy adult Chinese volunteers; continuous intravenous infusion, 2.25 mg/kg/h, 5-day infusion, CTCAE 5.0 grading).
Oc1c(Cl)cc2c(c1Cl)Oc1cc(Cl)c(Cl)cc1O2: “dose fraction in milk fat” 54.5% (whole cow milk; 500 nM nominal).
